Results collected from several papers.
Target: Tyrosine-protein kinase SYK (SYK, Homo sapiens, UniProt P43405)

The remaining activity of `COc1cc(N2CCN(C)CC2)ccc1Nc1nc(N)n(C(=S)NCc2c(Cl)cccc2Cl)n1` is reported as 3.8% (enzyme activity; 10 µM; baseline: control).
`CCN(CC)c1ccc(C2=NNC(=O)CC2C)cc1[N+](=O)[O-]` (centres unmarked) has a remaining activity of 69% (enzyme activity, inhibitor; 10 µM; baseline: vehicle).
`C=CC(=O)N1CCC(COCC(=O)N2CCN(c3nc(-c4cnc(N)nc4C(F)F)nc(N4CCOC[C@@H]4C)n3)CC2)CC1` has a remaining binding of 96% (KINOMEscan; 1 µM; baseline: DMSO control).
With `Cc1cc(Nc2cc(N3CCN(C)CC3)nc(Sc3ccc(NC(=O)C4CC4)cc3)n2)[nH]n1` the remaining activity was 98% (kinase activity, KinaseProfiler; 0.03 µM, species human; baseline: control).
`Cc1[nH]c(/C=C2\C(=O)Nc3ccc(F)cc32)c(C)c1C(=O)N[C@H]1CCN(C(=O)N(C)C)C1` has a remaining activity of 113% (kinase activity, inhibitor; 1 µM; baseline: no-compound control).
For `CCCOc1ccc(OC)c(F)c1C(=O)c1ccc(C(=O)N[C@@H]2CNC[C@H]2NC(=O)c2ccc3[nH]ncc3c2)cc1`, the remaining activity was 50% (enzyme activity; 10 µM).
The remaining binding of `C=CC(=O)N1CCC(C(=O)NCC(=O)N2CCN(c3nc(-c4cnc(N)nc4C(F)F)nc(N4CCOCC4)n3)CC2)CC1` is reported as 86% (KINOMEscan; 1 µM).
With `COc1cc(F)ccc1-c1ncnc(Nc2cccc(C[S@](C)(=N)=O)c2)n1` the remaining activity was 61% (kinase activity; 10 µM, together with: 10 µM ATP).
With `O=C1NC(=O)/C(=C/c2ccc(-c3ccc(F)cc3O)o2)S1` the remaining activity was 55% (enzyme activity; 10 µM).
`C1=C/COCc2cc(ccc2OCCN2CCCC2)Nc2nccc(n2)-c2cccc(c2)COC/1` has a remaining binding of 87% (concentration not given; baseline: DMSO control).
With `C=CC(=O)N1CCC[C@@H](n2nc(-c3ccc(Oc4ccccc4)cc3)c3c(N)ncnc32)C1` the remaining activity was 66.4% (10 µM).
`COc1cc(-c2cncc3c2CN(C)Cc2cc(N4CCNCC4)ccc2-3)cc(OC)c1OC` gave a remaining activity of 84% (kinase activity; 1 µM, human enzyme, together with: ATP 10 µM; baseline: DMSO control).
With `C[C@@H](c1ccc(-n2cnc3c(N)ncnc32)cc1)N1CCc2nn(C)c(Cc3ccccc3)c2C1=O` the remaining binding was 100% (KINOMEscan; 0.1 µM; baseline: DMSO control).
With `O=C(NC1CCC1)c1ccc2nc(-c3cccc(NS(=O)(=O)NCCN4CCCCC4)c3)cn2c1` the remaining activity was 100% (enzyme activity; 10 µM).

For quick reference, copied from above:
`COc1cc(-c2cncc3c2CN(C)Cc2cc(N4CCNCC4)ccc2-3)cc(OC)c1OC` gave a remaining activity of 84% (kinase activity; 1 µM, human enzyme, together with: ATP 10 µM; baseline: DMSO control).
With `C[C@@H](c1ccc(-n2cnc3c(N)ncnc32)cc1)N1CCc2nn(C)c(Cc3ccccc3)c2C1=O` the remaining binding was 100% (KINOMEscan; 0.1 µM; baseline: DMSO control).
